# Published values pooled from the literature.
# Every numbered part comes from another study and shows a few of its results, in no order. Changes are numbered by the printed parent chain.

# Sample 1 — method: RNA Bind-n-Seq; form: RNA; matrix: in vitro; tested at: not given; notes: RNA with constant flanks, ends assumed; relative to: input RNA pool; direction: higher = stronger binding
# Target: RING finger protein unkempt homolog, zinc fingers 1-6, GST-SBP tag (UNK, Homo sapiens, UniProt Q9C0B0, residues 30-357)
# Shared flanks, not repeated: GGGAGUUCUACAGUCCGACGAUC … CAACAGAGGAUUGAGCAUCA
# Construct (chain): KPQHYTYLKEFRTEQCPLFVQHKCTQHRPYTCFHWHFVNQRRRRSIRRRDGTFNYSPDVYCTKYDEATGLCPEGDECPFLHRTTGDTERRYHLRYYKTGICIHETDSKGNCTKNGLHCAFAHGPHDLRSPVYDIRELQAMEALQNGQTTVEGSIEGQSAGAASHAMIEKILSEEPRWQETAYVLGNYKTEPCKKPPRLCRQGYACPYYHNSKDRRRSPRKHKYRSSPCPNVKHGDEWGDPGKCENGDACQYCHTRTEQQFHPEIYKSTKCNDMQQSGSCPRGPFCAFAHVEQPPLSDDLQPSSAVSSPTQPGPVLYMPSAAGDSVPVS
Sequence,bound/input enrichment [ratio]
ACCCUGGAAGAGGAGACCGUGAUGCUUGCAAUGACUCCAGAUGAUUUGCAGGAGAAGGAAGCCGCUUAUUGUUCUACCUACACCCACUGUGAGAUUCACCCAUCAAUGAUUCUUGGAGUC,0.153
GAAGGGGAGCACCAUGAGAAAGCGGUAGAGCUACUGAAAGCAGCCCAAGGGAAGGUUAAAUCCGUCGUACGGUACACACCAAAAGUCUUGGAAGAAAUGGAGUCCCGCUUUGAGAAAAUG,0.194
CAUGUCCAGCUUCUCUAGGGCGCCCCAGCAAUGGGCCACUUUUGCUCGAAUGUGGUAUCUCUCCGAUGGCAAAAUGCAGCCCCCUGGCAAACUUGCGGUUAUAGCAUCCAACAAACUGCA,0.142
AGCAUGUUUAUAAUGUGCGCAGGACAAGCUUGAGAAUGGUCAUUGUGGUUAAUGUGCUGGUCCGUUGACGUUAUGACUACUUUAAGGAUUGUGACACACUCCUACUGAAAAACCUCAGUG,0.11
CUGACCCAUAAUAACGGAAAGUUUAACAAUGACUCACAUUCUCCUAAAGUUUCCAGCCAGAACCGGACACGCUCAUUUGGUCAUUUUCCCGGUCCAGAGUUCUUGGAUGUAGAGAAAACU,0.347
CUCUAUUUUUUUACUAUGGCUGGCAGUGUAUGGUGGGUAAUUCUUACCAUCACAUGGUUUUCCGCAGCUGUGCCAAAGUGGGGUAGUGAAGCUAUUGAGAAGAAAGCAUUGCUGUUUCAC,0.202
UGUAUACUGUUUUACCCAAACCCAGCAAAAAUGCAUGUGUCUGUCCACCAAAGGACAUGCACCCGAAUAUUUAUAGCCUAAAACUGCACAAAACAGAACUAUCUUAAGGCACAUGUGCAA,0.309
AUUUUGCUGUGUGGUGUGGCUGCCUUUGGUAGGGAGGUUUCCAUGGAUGUAGCCAGCGUGCCGCUAUUGUGUGUGGGGCAGCAUCCAGCCUGGAGUUGCCAGUGUCUCUAGCAAGCAAUA,0.243
AAGGGUAAUUAUUCGGAGCGGGUCGGCGCUGGUGCCCCGGUGUACCUGGCGGCUGUGCCCGAAUAUCUGACUGCUGAGAUCCUGGAAUUGGCUGGUAAUGCGGCCCGCGACAAUAAGAAG,0.143
UUCAACAGAAGAAAAGUAAUGGACUCCGAUGAAGACGACGCCGAUUACUAAGAGGACGCACUCCGACAGACUUCCGGAGCAGUGUCUAGGACAGUCACCACCUUGUAAAUGUUUACUUUG,0.11
GAGGAGGACUCUGACGACGACGAAGCGCUCAGCCCACCAAAACGAGGAAGACCCCAAGUCCGAUUGCCAAUUAAAACAAAAGGGAGAUUUGGCCCUUCUUUCCCAAGUCGCAGCCAACGA,0.0804

# Sample 2 — target: JUNB, bZIP domain (human); method: DHFR protein complementation; matrix: yeast; relative to: wild-type JUN-FOS pair; direction: higher = stronger binding
# Notes: single substitutions, most at no-binding floor
# Parent: JUN, bZIP domain (human); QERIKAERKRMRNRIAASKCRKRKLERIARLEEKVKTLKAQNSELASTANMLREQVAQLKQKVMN; partner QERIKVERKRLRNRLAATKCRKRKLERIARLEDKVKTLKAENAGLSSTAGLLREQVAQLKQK
Variant,binding fitness [natural log]
Q55M,-1.2
R30M,-0.992
M51W,-1.33
K39W,-1.43
Q41L,-1.2
T48P,-1.54
A40H,-1.23
I28V,-1.32
Q41D,-1.44
L45A,-1.5
R30P,-1.42
Q55R,-1.41
V35G,-1.5
L45W,-1.48
E32H,-1.33
A57V,-1.35
S47H,-0.987

# Sample 3 — target: CCNA1, cyclin fold, Cln2 fusion (human); method: yeast growth competition, sequencing; matrix: yeast; notes: weak parent motif; relative to: not given; direction: higher = stronger binding
# Parent: CDKN1A docking peptide (human); SKACRRLFGPVDS; partner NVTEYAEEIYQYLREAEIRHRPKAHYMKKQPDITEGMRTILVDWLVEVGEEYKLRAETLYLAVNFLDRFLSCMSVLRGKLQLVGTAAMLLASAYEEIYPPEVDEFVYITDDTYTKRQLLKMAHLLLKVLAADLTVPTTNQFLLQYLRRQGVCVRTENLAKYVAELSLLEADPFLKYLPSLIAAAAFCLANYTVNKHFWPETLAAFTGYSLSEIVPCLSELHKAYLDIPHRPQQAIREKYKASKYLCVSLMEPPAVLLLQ
Variant,normalised enrichment score
SGACRRLFGPVDS [K2G],0.481
SKACERLFGPVDS [R5E],-0.308
SKACRRLFGTVDS [P10T],0.425
SKACRRLFGPEDS [V11E],0.975
SKACRRLFGPTDS [V11T],1.03
SKACGRLFGPVDS [R5G],0.0338
SKNCRRLFGPVDS [A3N],-0.648
SKACRRLCGPVDS [F8C],0.256
SKACRRLFGPVSS [D12S],0.153
SKACRRLFGPYDS [V11Y],0.7
SKACRRLFHPVDS [G9H],0.663
SKACRDLFGPVDS [R6D],0.106
SKQCRRLFGPVDS [A3Q],0.0342
SKAGRRLFGPVDS [C4G],0.135
SKACRRLFGPCDS [V11C],0.538
SKACARAFGPVDS [R5A L7A],0.189

# Sample 4 — method: RNA Bind-n-Seq; form: RNA; matrix: in vitro; tested at: 365 nM; relative to: no-protein control; direction: higher = stronger binding
# Target: RNA binding protein fox-1 homolog 2, RRM domain, GST-SBP tag (RBFOX2, Homo sapiens, UniProt O43251-10, residues 100-194)
# Notes: natural RNA segment, single round, ends assumed
# Shared flanks, not repeated: GGGAGUUCUACAGUCCGACGAUC … UGGAAUUCUCGGGUGCCAA
# Target sequence (chain): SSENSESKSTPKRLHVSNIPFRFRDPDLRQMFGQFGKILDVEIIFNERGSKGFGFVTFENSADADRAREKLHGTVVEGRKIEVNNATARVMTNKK
Sequence,RBNS enrichment (R)
AGGUCAUCAAAAUAAUUUUUGUGUAUAAGGGAAUUUACCUUGCUUACCUUACUAGUAUGACUAUUAUCUUGACUUCUGGUAAUUUAUGUUCACUAUUCCAUUUGUGAAGU,0.56
AUAGAGUUAACAACUUACGAUAAAUUGCCCAAAGCUGGGCCUUGCUGUGUGUGCUCUGGACACUGUACAUUUGUACCCAACCAAGUGGGUCAAGUCGGAGAGGGACUCUU,0.353
GCGAGAGGACCUUCUGACGGUGAUUGUCCAACAUGCAUCUGGCCCGCUCUGCGGCUCCUCCCACCUCCAUCUUCUCCUAUCAUCGGGCUUAUUAUCCUCUCUCUUGGCUU,1.23
UACUGAUAACCAUAUUCUGGCUUGUUCCCUUACCCCCUACUUCUAUCCAAUUUUCUCUGCUAGGGGUUAUCAUUAGCAAUUGACAUGCUAAAGGUUUUGGAGCCCACCUA,0.716
CCUCUCUCUCCUCCUUUGACCUUCUCCUCGACCAGCCAUCAUGACAUUUACCAUGAAUUUACUUCCUCCCAAGAGUUUGGACUGCCCGUCAGAUUGUUGCUGCACAUAGU,1.59
ACUGAAGGACAAUUGACUUUUAUUUUUGUAUUUAAUUGACAUGAAUGUAAAGGGGACAGCUCAGGGUUGUUUUGGAGCCUGUUUGACUUUGUAAUCUCUGCCUGUGAUUU,1.59
AGCAGCUGUGGUCAUUAAACCAUUAGUUUACCCCUCUAGAACUGGGGUCUGCAAACUCCCACCUGCAGCCAAAUCUGGCCCACCUCCUUUUUAAUGUAAGGGCUGUGAGA,0.35
AUGGUGUCCACACUGACUACAUUGUCCCCAACCUGUUUUGGUAGACACACCAGCUCCUGUUGGGAUGGAUGGCCCGGAUUUUAUGGCAUCUGGAACAUGGGCACAGAGAG,0.421
UUAAUCUGGUUCAUUUGAAAUUUCUCACUUCUUAACCAUAGAGCUAAGUUAUUGUCAAAACUGGGCAGGAGACAGGAGAUUGGAGUGGUCUCUGCUGGGGUGUCUGACCC,0.534
GGGCCUCCUCCAUCAGAUGUCUGGGCCUCCUCCAGCUGGUGCCUGGACAUUCACCGUUUAUACAUGGGCUCACACCCGUGUGAGCAGAGGAGACCCUGUGUUUUCAGUGG,0.23
CCCUGGCCUCUCUUGUCUGCACGCCUCAUGUGGCCACUGGGAUUUGAGGGUCCACAGUGAACCUUGAUCAAAUUGCACAGUGGGUUGUUCCUCCACACACCCUCCUUUUU,3.36
UUAAGUAAUCAUUUAUUAAGACAGAAUUUUGUAUAAACUAUUUAUUGUGCUCUCUGUGGAACUGAAGUUUGAUUUAUUUUUGUACUACACGGCAUGGGUUUGUUGACACU,1.26

# Sample 5 — method: DHFR PCA, deep sequencing; matrix: yeast; added: (+)-ABA 0 µM; relative to: wild-type fitted maximum; direction: higher = stronger binding
# Target: ABI1, truncated, D143A, DHFR fusion (Arabidopsis thaliana)
# Notes: methotrexate growth selection, single substitutions
# Parent: PYL1, truncated, DHFR fusion (Arabidopsis thaliana); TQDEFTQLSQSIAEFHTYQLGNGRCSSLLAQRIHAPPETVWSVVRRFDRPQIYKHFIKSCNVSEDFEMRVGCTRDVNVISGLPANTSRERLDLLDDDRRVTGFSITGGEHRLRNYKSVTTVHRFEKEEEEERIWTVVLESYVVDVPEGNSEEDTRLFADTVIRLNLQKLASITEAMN; partner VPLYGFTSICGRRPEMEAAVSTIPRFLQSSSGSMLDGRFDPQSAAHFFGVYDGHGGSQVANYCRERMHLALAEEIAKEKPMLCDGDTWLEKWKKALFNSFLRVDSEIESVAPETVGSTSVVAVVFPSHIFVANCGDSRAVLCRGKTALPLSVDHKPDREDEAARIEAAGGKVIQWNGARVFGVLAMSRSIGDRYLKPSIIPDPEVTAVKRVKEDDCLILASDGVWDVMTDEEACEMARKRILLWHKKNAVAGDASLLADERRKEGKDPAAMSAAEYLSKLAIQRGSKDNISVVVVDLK
Variant,relative binding score [%]
D95E,-12.3
A13Y,6.44
P50Q,-10.3
E125D,9.8
L20H,40.2
E127H,39
L82K,2.2
I12V,6.83
V62A,2.73
N165V,6.03
N77K,49.6
Q51C,-2.06
P37S,2.51
K116Y,-3.98
R74L,1.27
F124I,56.2
K58I,-3.43

# Sample 6 — method: protein binding microarray; form: double-stranded DNA, one strand shown; matrix: in vitro; tested at: not given; relative to: not given; direction: higher = stronger binding
# Target: Histone acetyltransferase KAT6A, winged helix 1, GST fusion (KAT6A, Homo sapiens, UniProt Q92794, residues 1-85)
# Notes: 8-mer, flanks averaged, mean of 2 arrays, mostly near background
# Target sequence (chain): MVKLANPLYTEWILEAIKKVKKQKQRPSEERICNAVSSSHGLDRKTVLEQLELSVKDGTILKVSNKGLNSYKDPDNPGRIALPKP
Sequence,E-score
ACTTGACC,-0.166
TAAGTCGA,-0.26
AACCCCGG,0.233
AGCCTCGG,0.0566
CGTCTAGA,0.123
GGGTAAGA,-0.145
GTCTAGGA,-0.171
CTTTGGTA,0.0262
GCGAGAGC,0.167
ATTATTTA,-0.0341
AGTGGCCA,-0.251
AAACGATC,-0.19
CAACAATG,-0.155
AAGCTAGC,-0.0419
GTACCACA,-0.192
CTCATGGC,-0.00834
CACGCAAC,0.142
GAATTGCC,0.0603

# Excerpt of the above (sample 3):
Variant,normalised enrichment score
SKAGRRLFGPVDS [C4G],0.135
SKACRDLFGPVDS [R6D],0.106
SKNCRRLFGPVDS [A3N],-0.648
SKACRRLFGPTDS [V11T],1.03
SKACRRLFHPVDS [G9H],0.663
SKACRRLCGPVDS [F8C],0.256
SKACRRLFGPYDS [V11Y],0.7
SKACRRLFGTVDS [P10T],0.425
SKACRRLFGPVSS [D12S],0.153
SKACARAFGPVDS [R5A L7A],0.189
